Measured values pooled from the literature.
Each line is one published result; not all experiments were run side by side. “And” joins repeats or separate records; there may be more than shown.

Compound = O=C([O-])CN1CCN(CC(=O)[O-])CCN(Cc2cccc(C(=O)[O-])n2)CC1.[44Sc+3]; test system = mouse, spleen; conditions = intravenous, 1 h; measurement = tracer uptake; result = 0.69 %ID/g
Compound = C/C(N)=N/C(=N\S(=O)(=O)c1ccc(C(F)(F)F)cc1)N1C[C@H](c2ccccc2)C(c2ccc(Cl)cc2)=N1; test system = C57BL/6 mouse, heart; conditions = intravenous, 10 mg/kg; measurement = AUC(0-inf); result = 25000 ng·h/mL
Compound = C=C[C@]1(C)C[C@@H](OC(=O)CSc2ccc(NC(=O)c3ccco3)cc2)[C@]2(C)[C@H](C)CC[C@]3(CCC(=O)[C@H]32)[C@@H](C)[C@@H]1O; test system = Mycoplasma gallisepticum-infected chickens, plasma; conditions = intramuscular, 80 mg/kg, 10 h; measurement = plasma concentration; result = 112 ng/mL and 142 ng/mL and 107 ng/mL and 99.3 ng/mL and 115 ng/mL and 101 ng/mL
Compound = CN(Cc1ccccc1)C(=O)CN1CCN(CC(=O)[O-])CCN(Cc2cccc(C(=O)[O-])n2)CC1.[44Sc+3]; test system = mouse, spleen; conditions = intravenous, 1 h; measurement = tracer uptake; result = 0.47 %ID/g
Compound = CC[C@H](C)/C=C/C=C/C=C/C(O)=C/C(=O)C(F)(F)F; test system = C57BL/6 mice, female, plasma; conditions = oral, 25 mg/kg; measurement = MRT; result = 2.2 h
Compound = Cc1nn(-c2nc3c(F)cc(F)cc3s2)c(O)c1C(c1ccc(C(F)(F)F)cc1)c1c(C)nn(-c2nc3c(F)cc(F)cc3s2)c1O; test system = ICR mouse, plasma; conditions = oral, 50 mg/kg; measurement = AUC(0-inf) per dose; result = 7720 kg·ng·h/mL/mg and 7670 kg·ng·h/mL/mg and 7080 kg·ng·h/mL/mg
Compound = CC[C@H](C)[C@@H]1NC(=O)[C@H](Cc2ccc(O)cc2)NC(=O)CCCSC[C@@H](C(=O)N(CC(=O)N[C@@H](CC(C)C)C(=O)NCC(N)=O)Cc2ccc(F)cc2)NC(=O)[C@H](CC(N)=O)NC(=O)[C@H](CCC(N)=O)NC1=O; test system = human; conditions = intranasal, 100 µg single dose; measurement = severe adverse events; result = 0%
Compound = CC(C)c1cnc(-c2cc(Cl)ccc2F)cc1Nc1ccncc1C(=O)NC(CO)CO; test system = female C57BL/6 mice, plasma; conditions = oral, 100 mg/kg twice daily, day 1, MC-38 tumour-bearing, tau 8 h; measurement = unbound AUC(0-tau); result = 1.37 µM·h
Compound = C=C(NC(=O)c1csc(-c2nc3c(cc2O)-c2nc(cs2)C(=O)NC(C(C)O)C(=O)NC(=C(C)OC)c2nc(cs2)C(=O)NC2c4nc(cs4)C(=O)NC(COC(=O)c4c5c6c(cccc6n4O)COC(=O)C(OC4CC(C)(O)C(N(C)C)C(C)O4)C2OC5)c2nc-3cs2)n1)C(N)=O (centres unmarked); test system = Sprague-Dawley rats, female, plasma; conditions = intravenous infusion, 6 mg/kg, day 7, multiple dosing; measurement = AUC(0-t); result = 1630 ng·h/mL
Compound = O=C(Nc1cnccc1-c1ccc([18F])nc1)c1ccnc(NC(=O)C2CC2)c1; test system = FVB/NJ mice, both sexes, liver; conditions = intravenous, 30 min, median, P-gp inhibitor pretreatment, with: tariquidar 15 mg/kg iv; measurement = SUV; result = 8.54
Compound = CC[C@H](C)[C@H](NC(=O)[C@H](CCC(N)=O)NC(=O)[C@@H](NC(=O)[C@@H]1CCCN1[C@@H]1CN(C(=O)[C@H](CCCCN)NC(=O)[C@H](CC(N)=O)NC(=O)[C@@H](NC(=O)[C@@H](NC(=O)[C@H](CCC(N)=O)NC(=O)[C@@H](N)C(C)C)[C@@H](C)CC)[C@@H](C)CC)CC[C@H]1NS(=O)(=O)c1ccc(C)cc1)C(C)C)C(=O)N[C@H](C(=O)N[C@@H](Cc1ccc(O)cc1)C(=O)N[C@@H](CCCCN)C(N)=O)C(C)C; test = CD spectroscopy; test system = 20 mM phosphate buffer; conditions = 125 µM, 37 °C; measurement = random coil content; result = 55.9%

A few entries again:
Compound = CC[C@H](C)[C@@H]1NC(=O)[C@H](Cc2ccc(O)cc2)NC(=O)CCCSC[C@@H](C(=O)N(CC(=O)N[C@@H](CC(C)C)C(=O)NCC(N)=O)Cc2ccc(F)cc2)NC(=O)[C@H](CC(N)=O)NC(=O)[C@H](CCC(N)=O)NC1=O; test system = human; conditions = intranasal, 100 µg single dose; measurement = severe adverse events; result = 0%
Compound = CC(C)c1cnc(-c2cc(Cl)ccc2F)cc1Nc1ccncc1C(=O)NC(CO)CO; test system = female C57BL/6 mice, plasma; conditions = oral, 100 mg/kg twice daily, day 1, MC-38 tumour-bearing, tau 8 h; measurement = unbound AUC(0-tau); result = 1.37 µM·h
